Published values collected from several papers.
Lines come from different studies, so protocols differ. Numbers after ± are the reported error.
TMPRSS2: Transmembrane protease serine 2 (TMPRSS2, Homo sapiens, UniProt O15393)
FGFR1: Fibroblast growth factor receptor 1 (FGFR1, Homo sapiens, UniProt P11362)
TMPRSS11D: Transmembrane protease serine 11D (TMPRSS11D, Homo sapiens, UniProt O60235)
PDEB1: Class 1 phosphodiesterase PDEB1 (PDEB1, Trypanosoma brucei, UniProt Q8WQX9)
AGTR1: Type-1 angiotensin II receptor (AGTR1, Homo sapiens, UniProt P30556)
PTGS2: Prostaglandin G/H synthase 2 (PTGS2, Homo sapiens, UniProt P35354)
Mycosin-1: Mycosin-1 (Mycolicibacterium thermoresistibile, UniProt G7CDQ2)

For `Cc1ccc(CC(=O)N/N=C/c2cc(Br)c(O)c(Br)c2O)cc1`, the inhibition was 54% (Cystic fibrosis transmembrane conductance regulator (CFTR, Homo sapiens, UniProt P13569); apical Cl- current; FRT; 50 µM).
For `O=C(NC1CCNCC1)c1ccc2ccccc2c1O`, the inhibition was < 20% (TMPRSS2; enzyme activity, inhibitor; 10 µM, with: Boc-QAR-AMC).
The inhibition of `OC(c1ccc(C(F)(F)F)cc1)c1c[nH]c2ncc(C(F)(F)F)cc12` (stereo not shown) is reported as 25% (FGFR1; enzyme activity, inhibitor; 1 µM).
`CC(=O)c1cnc(N)nc1N1CC[C@H]1c1nn2ccc(Cl)c2c(=O)n1-c1ccccc1` has an inhibition of < 10% (Potassium/sodium hyperpolarization-activated cyclic nucleotide-gated channel 4 (HCN4, Homo sapiens, UniProt Q9Y3Q4); ion current, inhibitor; 3 µM).
`CN(C1COC1)C(C)(C)/C=C(\C#N)C(=O)N1CCC[C@H]1Cn1nc(-c2ccc(Oc3ccccc3)cc2F)c2c(N)ncnc21` gave an inhibition of > 90% (Receptor tyrosine-protein kinase erbB-4 (ERBB4, Homo sapiens, UniProt Q15303); 1 µM, mean).
For `NCc1ccc(NC(=O)c2ccc3ccccc3c2)cc1`, the inhibition was < 20% (TMPRSS11D; enzyme activity, fluorogenic substrate; 10 µM, with: Boc-VPR-AMC).
For `COc1cc(C(=O)NC2CCC(N3CCN(CC4CCC5(CCCC5)C4)CC3)CC2)c(F)cc1Nc1ncc2c(n1)N(C1CCCC1(F)F)CC(F)(F)C(=O)N2C` (stereo not shown), the inhibition was 0.62% (Tyrosine-protein kinase Lyn (LYN, Homo sapiens, UniProt P07948); cell-free assay, TR-FRET; 10 µM).
`CC(C)(O)Cn1nc(-c2ccccc2)c2c(Cl)c(-c3ccccc3)nnc21` gave an inhibition of 40.1 ± 19.1% (Heat shock protein HSP 90-beta (HSP90AB1, Homo sapiens, UniProt P08238); chaperone activity; 8.46 µM, with: citrate synthase aggregation).
For `CC(C)c1ccc(C(=O)Nc2ccc(CN)cc2)c(O)c1`, the inhibition was 92.9% (TMPRSS2; enzyme activity, inhibitor, fluorescence; 10 µM).
Under inhibition, `N=C(N)SCc1cccc(CSC(=N)N)c1` is recorded as “inactive” (Tryptophan 2,3-dioxygenase (TDO2, Homo sapiens, UniProt P48775); enzyme activity, inhibitor, biochemical; concentration not given).
`NCCCCCO[C@H]1O[C@H](COS(=O)(=O)O)[C@@H](O[C@@H]2O[C@@H](C(=O)O)[C@@H](O)[C@H](O)[C@H]2OS(=O)(=O)O)[C@H](O)[C@H]1NS(=O)(=O)O`: inhibition “inactive” (Heparanase (HPSE, Homo sapiens, UniProt Q9Y251); enzyme activity, inhibitor, WST-1; 50 µM, with: fondaparinux).
The inhibition of `Cc1c(-c2c3c(N)n[nH]c(=O)c3nn2-c2ccccc2)oc2ccc(C(F)(F)F)cc12` is reported as 38% (FGFR1; enzyme activity, inhibitor, ELISA; 0.1 µM).
For `CCc1cccc(Nc2c(C(N)=O)cnc3c(C)cc(-c4ccc5cnn(C)c5c4)cc23)c1`, the inhibition was 67% (PDEB1; enzyme activity, inhibitor; 10 µM).
With `CN(C)S(=O)(=O)c1cc(C(=O)O)ccc1NCCCCCCCC(F)(F)F` the inhibition was 95.2 ± 7.6% (Solute carrier family 12 member 2 (SLC12A2, Homo sapiens, UniProt P55011); chloride influx; HEK293 transfected with SLC12A2; 100 µM; reference: DMSO).
`O=C(Cc1ccc(Cl)cc1)Nc1ccc(S(=O)(=O)Nc2cnc3ccccc3n2)cc1` has an inhibition of 3.2% (Peptidyl-prolyl cis-trans isomerase A (PPIA, Homo sapiens, UniProt P62937); enzyme activity, inhibitor; 10 µM).
Under inhibition, `CC(C)C1=CCC2C(=C1)CCC1C(C)(C(=O)O)CCCC21C` (stereo not shown) is recorded as “no effect” (Replication protein A 70 kDa DNA-binding subunit (RPA1, Homo sapiens, UniProt P27694); ssDNA binding, EMSA; 200 µM).
For `O=C1NCCC(O)c2ccccc21` (stereo not shown), the inhibition was 92% (Protein mono-ADP-ribosyltransferase PARP16 (PARP16, Homo sapiens, UniProt Q8N5Y8); enzyme activity, inhibitor; 10 µM).
`Cc1cccc(O)c1C(=O)Nc1ccc(CN)cc1` has an inhibition of < 20% (TMPRSS11D; enzyme activity, fluorogenic substrate; 10 µM, with: Boc-VPR-AMC).
`COc1cc2ncc3c(c2cc1-c1cnn(C)c1)n(-c1ccc(C#N)cc1F)c(=O)n3C` has an inhibition of > 50% (FMS kinase (CSF1R); enzyme activity, inhibitor; 1 µM).
For `CCCCOC(=O)NS(=O)(=O)c1sc(CC(C)C)cc1-c1ccc(OC)c(Cn2ccnc2)c1`, the inhibition was 23% (AGTR1; ligand displacement, radioligand; 10 µM, cell membranes).
With `FC(F)(F)c1cnc2[nH]cc(Cc3ccc(Cl)c(C(F)(F)F)c3)c2c1` the inhibition was 7% (FGFR1; enzyme activity, inhibitor; 0.1 µM).
`Oc1c(C(Nc2nccs2)c2cccc(OCc3ccccc3)c2)ccc2cccnc12` (stereo not shown) gave an inhibition of 87.2 ± 0.89% (Genome polyprotein, NS2B-NS3 protease (GP1, West Nile virus, UniProt Q9Q6P4); enzyme activity, inhibitor; 25 µM, 0.1% CHAPS, with: tetrapeptide substrate).
The inhibition of `CCCCOC(=O)NS(=O)(=O)c1sc(CC(C)C)cc1-c1ccc(Br)c(Cn2ccnc2)c1` is reported as 18% (AGTR1; ligand displacement, radioligand; 10 µM, cell membranes).
For `CCn1c2ccccc2c2cc(CNCCCn3cnnc3)ccc21`, the inhibition was 30.5% (D(2) dopamine receptor (DRD2, Homo sapiens, UniProt P14416); cell-free assay, inhibitor; 10 µM).
The inhibition of `FC(F)(F)c1cnc2[nH]cc(Cc3ccc(OCc4ccccc4)cc3)c2c1` is reported as 29% (FGFR1; enzyme activity, inhibitor; 1 µM).
`CCCCCCCCc1ccc(CC[C@@](N)(/C=C/P(=O)(O)O)CO)cc1` gave an inhibition of 40% (Sphingosine kinase 1 (SPHK1, Homo sapiens, UniProt Q9NYA1); enzyme activity, inhibitor; 50 µM).
`OC(c1cccc(OC(F)(F)F)c1)c1c[nH]c2ncc(C(F)(F)F)cc12` (stereo not shown) has an inhibition of -5% (FGFR1; enzyme activity, inhibitor; 0.1 µM).
With `CCCCOC(=O)NS(=O)(=O)c1sc(CC(C)C)cc1-c1ccnc(Cn2ccnc2)c1` the inhibition was 19% (AGTR1; ligand displacement, radioligand; 10 µM, cell membranes).
With `Cc1cccc(C(=O)Nc2ccc(CN)cc2)c1O` the inhibition was < 20% (TMPRSS2; enzyme activity, inhibitor; 10 µM, with: Boc-QAR-AMC).
`Cc1ccc(/C=C2\CCCC3C2=NN(C(=O)c2ccncc2)C3c2ccc(C)cc2)cc1` (stereo not shown) gave an inhibition of 78.9% (PTGS2; enzyme activity; concentration not given).
`O=C(Nc1ccccc1O)c1ccc(-c2ccc(Cl)cc2Cl)o1` — result for inhibition: “no inhibition” (Heat shock protein HSP 90-beta, N-terminal domain (HSP90AB1, Homo sapiens, UniProt P08238); binding, fluorescence polarization; 10 µM, with: FITC-geldanamycin).
The inhibition of `OC(c1ccc(Cl)c(C(F)(F)F)c1)c1c[nH]c2ncc(C(F)(F)F)cc12` (stereo not shown) is reported as 3% (FGFR1; enzyme activity, inhibitor; 0.1 µM).
For `NCc1ccc(NC(=O)c2ccc3ccccc3c2O)cc1`, the inhibition was 76.8% (TMPRSS2; enzyme activity, inhibitor, fluorescence; 10 µM).
Under inhibition, `CC(NC(=O)c1ccccc1N)c1ccccc1` (stereo not shown) is recorded as “no inhibition” (Krev interaction trapped protein 1, FERM domain (KRIT1, Homo sapiens, UniProt O00522); HEG1-KRIT1 FERM interaction, flow cytometry bead; concentration not given).
With `COc1ccccc1Nc1c(C(N)=O)cnc2c(C)cc(-c3ccc4cnn(C)c4c3)cc12` the inhibition was 60% (PDEB1; enzyme activity, inhibitor; 10 µM).
For `CCCCCCCCN(CCC(=O)Nc1ccccc1)C(=O)c1ccccc1`, the inhibition was 80% (Protein-S-isoprenylcysteine O-methyltransferase (Homo sapiens, UniProt O60725); enzyme activity, inhibitor, hit selection screen; Sf9 membranes; 50 µM, with: biotin-farnesyl-L-cysteine).
With `N=C(N)N/N=C1/C=C2C/C(=N\NC(=N)N)C=C2C1` the inhibition was 73% (Mycosin-1; protease activity, inhibitor, quenched fluorescent peptide; 150 µM, with: 20 µM fluorogenic peptide substrate; reference: DMSO control).
`CCc1nc2ccc(Cl)cn2c1C(=O)NC/C=C(\C)CC/C=C(\C)CCC=C(C)C`: inhibition “no inhibition” (MT-CYB (Bos taurus, UniProt P00157); oxygen consumption; bovine heart submitochondrial particles; 1 µM).
`O=[N+]([O-])c1ccc(/N=N/c2ccc(O)c(O)c2)cc1` has an inhibition of > 50% (Semaphorin-3C, with neuropilin-1 (SEMA3C, Homo sapiens, UniProt Q99985); SEMA3C binding, inhibitor; 25 µM, with: SEMA3C; reference: DMSO).
With `N#Cc1c(NC(=O)CN2CCOCC2)sc2c1CCC(c1ccccc1)C2` (stereo not shown) the inhibition was 25.6% (L-lactate dehydrogenase A chain (LDHA, Homo sapiens, UniProt P00338); enzyme activity, inhibitor, fluorescence; 100 µg/mL).
The inhibition of `CC(=O)Oc1ccccc1C(=O)[O][Pt]([NH2])([NH2])([Cl])([Cl])[O]C(=O)CCCc1ccccc1` is reported as 6.1% (PTGS2; enzyme activity, COX activity kit; PSN1; 1 µM, 24 h).
`N[C@H]1CCCc2c1[nH]c1ccc(Cl)cc21` has an inhibition of 89.2% (Sodium-dependent serotonin transporter (SLC6A4, Homo sapiens, UniProt P31645); ligand displacement, radioligand; 10 µM).
With `Cc1ccc(O)c(C(=O)Nc2ccc(CN)cc2)c1` the inhibition was 92% (TMPRSS11D; enzyme activity, inhibitor, fluorescence; 10 µM).
`FC(F)(F)c1cnc2[nH]cc(Cc3cccc(Cl)c3)c2c1` has an inhibition of 2% (FGFR1; enzyme activity, inhibitor; 0.1 µM).
`Cc1cc2c(NC(=O)N[C@@H]3CC(C)(C)Oc4c(OC(F)(F)F)cccc43)cccc2cn1` gave an inhibition of -5.1 ± 9.2% (Transient receptor potential cation channel subfamily V member 1 (Trpv1, Rattus norvegicus, UniProt O35433); acid-evoked calcium influx, antagonist; HEK293, rat; 11.25 µM, pH 5).
With `Cc1nc2ccc(Cc3c[nH]c4ncc(C(F)(F)F)cc34)cc2o1` the inhibition was 27% (FGFR1; enzyme activity, inhibitor; 0.1 µM).
`CSC(=S)N/N=C/C(C)=N/NC(=N)N` has an inhibition of 75.8% (Mycosin-1; protease activity, inhibitor, quenched fluorescent peptide; 150 µM, with: 20 µM fluorogenic peptide substrate; reference: DMSO control).
For `FC(F)(F)c1ccc(Cc2c[nH]c3ncc(C(F)(F)F)cc23)cc1`, the inhibition was 21% (FGFR1; enzyme activity, inhibitor; 1 µM).
For `NCc1ccc(NC(=O)c2cc3ccccc3[nH]2)cc1`, the inhibition was < 20% (TMPRSS11D; enzyme activity, fluorogenic substrate; 10 µM, with: Boc-VPR-AMC).

Some of these lines once more:
`CCCCCCCCc1ccc(CC[C@@](N)(/C=C/P(=O)(O)O)CO)cc1` gave an inhibition of 40% (Sphingosine kinase 1 (SPHK1, Homo sapiens, UniProt Q9NYA1); enzyme activity, inhibitor; 50 µM).
`OC(c1cccc(OC(F)(F)F)c1)c1c[nH]c2ncc(C(F)(F)F)cc12` (stereo not shown) has an inhibition of -5% (FGFR1; enzyme activity, inhibitor; 0.1 µM).
With `CCCCOC(=O)NS(=O)(=O)c1sc(CC(C)C)cc1-c1ccnc(Cn2ccnc2)c1` the inhibition was 19% (AGTR1; ligand displacement, radioligand; 10 µM, cell membranes).
With `Cc1cccc(C(=O)Nc2ccc(CN)cc2)c1O` the inhibition was < 20% (TMPRSS2; enzyme activity, inhibitor; 10 µM, with: Boc-QAR-AMC).
`Cc1ccc(/C=C2\CCCC3C2=NN(C(=O)c2ccncc2)C3c2ccc(C)cc2)cc1` (stereo not shown) gave an inhibition of 78.9% (PTGS2; enzyme activity; concentration not given).
